Results from different studies.
Numbered parts are unrelated; each lists some results of a single study. Values joined by “and” are separate records of one study, mostly repeats; a detail may differ.
UniProt Q8IVH8, sequence (whole entry, looked up): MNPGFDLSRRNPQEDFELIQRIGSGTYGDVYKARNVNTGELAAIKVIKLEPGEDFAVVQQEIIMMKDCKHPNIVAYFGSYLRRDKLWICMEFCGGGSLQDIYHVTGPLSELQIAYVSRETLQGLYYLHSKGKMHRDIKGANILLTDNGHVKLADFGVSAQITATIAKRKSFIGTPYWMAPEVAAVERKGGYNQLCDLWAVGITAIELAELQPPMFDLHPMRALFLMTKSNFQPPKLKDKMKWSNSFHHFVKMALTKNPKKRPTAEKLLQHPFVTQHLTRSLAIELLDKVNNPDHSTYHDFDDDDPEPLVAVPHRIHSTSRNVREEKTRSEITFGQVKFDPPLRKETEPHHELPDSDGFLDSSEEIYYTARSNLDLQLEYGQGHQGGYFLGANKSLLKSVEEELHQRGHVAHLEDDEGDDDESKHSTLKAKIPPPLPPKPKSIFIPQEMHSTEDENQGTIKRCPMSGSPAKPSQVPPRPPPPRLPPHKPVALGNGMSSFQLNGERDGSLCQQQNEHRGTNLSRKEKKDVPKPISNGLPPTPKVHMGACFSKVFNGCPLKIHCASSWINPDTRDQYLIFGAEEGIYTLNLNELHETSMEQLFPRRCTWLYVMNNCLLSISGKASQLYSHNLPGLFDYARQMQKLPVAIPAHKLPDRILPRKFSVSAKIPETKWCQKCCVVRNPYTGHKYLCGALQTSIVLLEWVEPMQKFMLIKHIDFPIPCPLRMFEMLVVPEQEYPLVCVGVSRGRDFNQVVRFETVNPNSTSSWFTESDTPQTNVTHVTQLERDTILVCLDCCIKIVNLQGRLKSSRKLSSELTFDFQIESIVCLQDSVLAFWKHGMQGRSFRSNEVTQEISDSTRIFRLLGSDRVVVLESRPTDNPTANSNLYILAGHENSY
UniProt P36896, sequence (whole entry, looked up): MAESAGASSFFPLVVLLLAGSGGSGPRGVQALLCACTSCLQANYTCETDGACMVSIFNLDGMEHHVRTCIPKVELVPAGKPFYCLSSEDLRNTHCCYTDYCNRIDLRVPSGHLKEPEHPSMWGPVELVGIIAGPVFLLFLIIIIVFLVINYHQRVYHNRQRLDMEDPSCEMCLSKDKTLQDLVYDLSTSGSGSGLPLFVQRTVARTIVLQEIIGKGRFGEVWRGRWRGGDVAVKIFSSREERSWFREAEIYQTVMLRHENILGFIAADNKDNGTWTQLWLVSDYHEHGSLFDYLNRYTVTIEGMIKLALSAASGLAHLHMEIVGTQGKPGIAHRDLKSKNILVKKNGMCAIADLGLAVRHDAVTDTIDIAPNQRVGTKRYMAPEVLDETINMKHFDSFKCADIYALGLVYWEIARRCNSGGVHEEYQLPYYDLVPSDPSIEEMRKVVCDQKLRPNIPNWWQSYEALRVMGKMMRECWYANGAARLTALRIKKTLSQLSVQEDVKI
UniProt P23458, sequence (whole entry, looked up): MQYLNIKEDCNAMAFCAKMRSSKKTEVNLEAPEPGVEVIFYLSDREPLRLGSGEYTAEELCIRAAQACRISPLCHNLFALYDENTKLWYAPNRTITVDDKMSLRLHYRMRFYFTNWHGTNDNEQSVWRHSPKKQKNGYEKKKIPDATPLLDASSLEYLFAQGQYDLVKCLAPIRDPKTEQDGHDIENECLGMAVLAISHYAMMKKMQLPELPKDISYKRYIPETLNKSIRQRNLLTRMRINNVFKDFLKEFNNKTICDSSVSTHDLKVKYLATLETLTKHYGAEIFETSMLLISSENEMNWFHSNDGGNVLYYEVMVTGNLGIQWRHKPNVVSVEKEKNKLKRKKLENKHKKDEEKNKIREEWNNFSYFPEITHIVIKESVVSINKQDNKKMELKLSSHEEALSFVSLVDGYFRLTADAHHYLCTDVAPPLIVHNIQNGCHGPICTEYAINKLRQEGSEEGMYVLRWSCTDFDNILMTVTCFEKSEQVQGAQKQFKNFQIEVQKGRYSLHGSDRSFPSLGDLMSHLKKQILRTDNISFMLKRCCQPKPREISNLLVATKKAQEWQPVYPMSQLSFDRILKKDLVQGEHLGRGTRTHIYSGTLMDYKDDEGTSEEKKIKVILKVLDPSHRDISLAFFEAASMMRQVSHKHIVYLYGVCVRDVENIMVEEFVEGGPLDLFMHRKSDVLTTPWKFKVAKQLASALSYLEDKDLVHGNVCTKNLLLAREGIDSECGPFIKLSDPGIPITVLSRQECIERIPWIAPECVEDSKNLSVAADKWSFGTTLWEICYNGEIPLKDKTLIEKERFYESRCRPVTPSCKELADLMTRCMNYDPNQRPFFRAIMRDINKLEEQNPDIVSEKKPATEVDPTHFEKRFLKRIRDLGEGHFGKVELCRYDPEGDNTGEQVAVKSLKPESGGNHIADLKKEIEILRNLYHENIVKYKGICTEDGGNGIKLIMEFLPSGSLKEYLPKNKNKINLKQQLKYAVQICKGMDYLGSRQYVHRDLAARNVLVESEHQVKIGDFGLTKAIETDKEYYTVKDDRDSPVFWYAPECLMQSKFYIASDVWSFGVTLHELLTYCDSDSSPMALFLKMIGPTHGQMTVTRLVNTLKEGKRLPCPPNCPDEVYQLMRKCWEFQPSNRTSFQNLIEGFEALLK

Block 1
SMILES: CCN1/C(=C/C=C2\CCCC(/C=C/C3=[N+](CC)c4ccccc4C3(C)C)=C2NCCCCCCCCN2CCC(Nc3nc4ccccc4n3Cc3ccc(F)cc3)CC2)C(C)(C)c2ccccc21
Cell line: U-87 MG
Concentration: concentration not given
Reference: DMSO
test | log2 fold change
refers to: RAB11FIP1 mRNA | -3
refers to: HAS3 mRNA | -1.41
refers to: TRIM6 mRNA | -1.07
refers to: SSBP4 mRNA | -0.929
refers to: TFAP4 mRNA | -1.59
refers to: LIN9 mRNA | -1.14
refers to: ANO8 mRNA | -0.856
refers to: JMJD1C mRNA | 1.07
refers to: SLC44A5 mRNA | 2.86
refers to: CPAMD8 mRNA | 4.54
refers to: UNC5B mRNA | 1.66
refers to: TBC1D15 mRNA | 0.806
refers to: STX11 mRNA | 3.83
refers to: RNF112 mRNA | -2.39
refers to: TCIRG1 mRNA | -1.06
refers to: CRY1 mRNA | 0.954

Block 2
Compound: CN1CCC[C@H]1COc1nc2c(c(N3CCN(C(=O)C4CC4)[C@@H](CC#N)C3)n1)CCN(c1cccc3cccc(Cl)c13)C2
Effect on: binding
Mode: competitor
Technique: NanoBRET
Cell line: HEK293
KRAS Q61L: GTPase KRas (KRAS, Homo sapiens, UniProt P01116, Q61L)
KRAS Q61R: GTPase KRas (KRAS, Homo sapiens, UniProt P01116, Q61R)
KRAS G13D: GTPase KRas (KRAS, Homo sapiens, UniProt P01116, G13D)
KRAS G12D: GTPase KRas (KRAS, Homo sapiens, UniProt P01116, G12D)
target | setting | normalized BRET
KRAS Q61L | 412 nM | 90.4% and 90.6% and 82.9%
KRAS Q61R | 137 nM | 97.3% and 90% and 98.8%
KRAS Q61R | 1.24 µM | 95.8% and 75.2% and 87%
KRAS G13D | 45.7 nM | 99.8% and 97.8% and 85.2%
KRAS G12D | 137 nM | 103% and 104% and 97.2%
KRAS G13D | 1.69 nM | 95.9% and 104% and 90.4%
KRAS Q61L | 45.7 nM | 92.5% and 82.3% and 88.6%
KRAS G12D | 1.69 nM | 98.5% and 108%
KRAS G13D | 15.2 nM | 92.9% and 100% and 95.6%

Block 3
Cell line: HCC1569
Effect on: CDK1 Thr14 phosphorylation
Technique: in-cell western
Concentration: 111.11 nM
Direction: lower = stronger inhibition
SMILES | phospho-CDK1 (Thr14) level
Cc1ccc(O)c(C)c1-c1cnc2[nH]c(-c3cnc(N4CC5(CC(CN6CCN(c7ccc(NC8CCC(=O)NC8=O)cc7F)CC6)C5)C4)nc3)cc2c1C#N (stereo not drawn) | 90.3 a.u. and 89.8 a.u.
Cc1ccc(O)c(C)c1-c1cnc2[nH]c(-c3cnc(N4CCC(CN5CCN(c6ccc7c(c6)C(=O)N(C6CCC(=O)NC6=O)C7=O)CC5)CC4)nc3)cc2c1C#N (stereo not drawn) | 73.6 a.u. and 72.5 a.u.
Cc1ccc(O)c(C)c1-c1cnc2[nH]c(-c3cnc(N4CCC(CN5CCC(c6ccc(NC7CCC(=O)NC7=O)cc6F)CC5)CC4)nc3)cc2c1C#N (stereo not drawn) | 62.7 a.u. and 57.9 a.u.
Cc1ccc(O)c(C)c1-c1cnc2[nH]c(-c3cnc(N4CCC(CN5CCN(c6cc7c(cc6F)c(N6CCC(=O)NC6=O)nn7C)CC5)CC4)nc3)cc2c1C#N | 53.1 a.u. and 60.4 a.u.
Cc1ccc(O)c(C)c1-c1cnc2[nH]c(-c3cnc(N4CCC(CN5CCN(c6cc7c(cc6F)n(C6CCC(=O)NC6=O)c(=O)n7C)CC5)CC4)nc3)cc2c1C#N (stereo not drawn) | 45.5 a.u. and 39.6 a.u.

Block 4
Structure (SMILES): CCN1CCN(Cc2ccc(COc3c(-c4c(C)c(F)cc5[nH]ncc45)c(C4CC4)cc4c(N5C[C@@H]6C[C@H]5CN6)nc(OC5CCOCC5)nc34)cc2)C(=O)C1
Target: GTPase KRas, GDP-bound (KRAS, Homo sapiens, UniProt P01116, G12D)
test | system | setting | Kd
SPR, multi-cycle | immobilized KRAS G12D | binary, geometric mean | 1.08 nM
binder, multi-cycle SPR | – | binary, without VCB | 0.631 nM and 3.53 nM and 0.964 nM and 0.565 nM and 1.21 nM
SPR | – | binary without VCB | 1.1 nM

Block 5
SMILES: C[C@@H]1CN(c2ccc(-c3cc(C(=O)NCCOCCOCCOCCOCCNC(=O)Cn4cc(-c5[nH]cc(C(=O)N[C@@H](CC(N)=O)c6ccc(F)c(Cl)c6)c5-c5ccc(Cl)cc5F)cn4)ccc3F)cc2NC(=O)c2c[nH]c(=O)cc2C(F)(F)F)C[C@H](C)N1C
Effect on: thermal unfolding
Technique: differential scanning fluorimetry
Concentration: 5.5 µM
Direction: higher = more unfolded
DCAF1: DDB1- and CUL4-associated factor 1 (DCAF1, Homo sapiens, UniProt Q9Y4B6)
UniProt Q9Y4B6, sequence (whole entry, looked up): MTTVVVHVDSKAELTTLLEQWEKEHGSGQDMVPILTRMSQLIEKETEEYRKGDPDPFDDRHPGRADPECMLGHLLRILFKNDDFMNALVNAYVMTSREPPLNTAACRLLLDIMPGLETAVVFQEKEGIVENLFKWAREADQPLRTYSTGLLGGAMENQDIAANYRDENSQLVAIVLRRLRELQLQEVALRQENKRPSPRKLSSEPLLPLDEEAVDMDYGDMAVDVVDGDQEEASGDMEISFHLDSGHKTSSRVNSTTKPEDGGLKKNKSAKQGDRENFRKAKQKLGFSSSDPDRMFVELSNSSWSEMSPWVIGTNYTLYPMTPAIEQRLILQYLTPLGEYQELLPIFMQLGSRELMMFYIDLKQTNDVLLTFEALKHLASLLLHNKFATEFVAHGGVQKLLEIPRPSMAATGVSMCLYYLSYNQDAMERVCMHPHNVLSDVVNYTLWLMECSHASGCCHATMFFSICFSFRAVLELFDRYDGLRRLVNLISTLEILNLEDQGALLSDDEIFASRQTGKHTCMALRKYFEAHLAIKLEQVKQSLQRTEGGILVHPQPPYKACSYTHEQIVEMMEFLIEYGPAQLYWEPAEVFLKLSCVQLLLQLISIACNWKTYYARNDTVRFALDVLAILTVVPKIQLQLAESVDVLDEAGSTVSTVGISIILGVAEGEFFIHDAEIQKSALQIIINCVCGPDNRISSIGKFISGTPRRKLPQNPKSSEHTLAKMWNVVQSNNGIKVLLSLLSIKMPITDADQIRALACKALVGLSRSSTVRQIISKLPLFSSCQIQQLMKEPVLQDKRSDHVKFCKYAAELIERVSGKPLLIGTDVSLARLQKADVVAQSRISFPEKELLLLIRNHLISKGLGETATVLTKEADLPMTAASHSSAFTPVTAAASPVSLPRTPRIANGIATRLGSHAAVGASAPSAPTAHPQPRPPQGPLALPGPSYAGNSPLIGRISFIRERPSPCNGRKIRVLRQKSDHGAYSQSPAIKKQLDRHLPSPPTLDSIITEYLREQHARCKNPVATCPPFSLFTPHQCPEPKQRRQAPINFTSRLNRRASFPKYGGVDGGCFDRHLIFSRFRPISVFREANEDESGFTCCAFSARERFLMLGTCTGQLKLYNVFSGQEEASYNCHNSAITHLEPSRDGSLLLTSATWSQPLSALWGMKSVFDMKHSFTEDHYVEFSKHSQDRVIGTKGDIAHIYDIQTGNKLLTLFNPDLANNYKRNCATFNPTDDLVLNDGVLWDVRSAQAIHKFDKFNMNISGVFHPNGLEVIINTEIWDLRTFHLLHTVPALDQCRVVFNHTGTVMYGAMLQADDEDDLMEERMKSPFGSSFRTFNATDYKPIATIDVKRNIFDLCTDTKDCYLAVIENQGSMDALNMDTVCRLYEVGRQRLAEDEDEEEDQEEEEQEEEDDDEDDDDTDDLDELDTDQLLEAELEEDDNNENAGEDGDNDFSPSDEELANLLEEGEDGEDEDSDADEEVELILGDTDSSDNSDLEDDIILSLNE
WDR5: WD repeat-containing protein 5 (WDR5, Homo sapiens, UniProt P61964)
target | setting | SYPRO Orange fluorescence
DCAF1 | 35.8 °C | 9110 a.u.
WDR5 | 85.61 °C | 40700 a.u.
WDR5 | 34.4 °C | 14300 a.u.
DCAF1 | 57.61 °C | 27200 a.u.
WDR5 | 72.01 °C | 7590 a.u.
WDR5 | 64.61 °C | 7840 a.u.
DCAF1 | 94.41 °C | 30500 a.u.
WDR5 | 86.81 °C | 42700 a.u.
DCAF1 | 85.01 °C | 39800 a.u.
WDR5 | 39.4 °C | 14300 a.u.
DCAF1 | 28.6 °C | 7990 a.u.

Block 6
SMILES: O=C(O)C1(O)Oc2ccccc2N(Cc2ccccc2)C1=O (stereo not drawn)
Organism: Arabidopsis thaliana
Strain: Col-0
setting | hypocotyl length
100 µg/mL, seed germination, repetition mean | 1.33 cm
3.125 µg/mL, seed germination, repetition mean | 1.95 cm
12.5 µg/mL, seed germination, repetition mean | 1.75 cm
100 µg/mL, seed germination, single repetition | 1.35 cm and 1.33 cm and 1.32 cm and 1.31 cm
25 µg/mL, seed germination, single repetition | 1.54 cm and 1.5 cm and 1.45 cm and 1.52 cm and 1.51 cm
50 µg/mL, seed germination, repetition mean | 1.45 cm
6.25 µg/mL, seed germination, single repetition | 1.93 cm and 1.89 cm and 1.91 cm and 1.94 cm
25 µg/mL, seed germination, repetition mean | 1.5 cm
6.25 µg/mL, seed germination, repetition mean | 1.92 cm

Block 7
SMILES: COCCCCCCC1CC2C(CCC3(C)C(O)CCC23)c2ccc(O)cc21 (stereo not drawn)
Technique: microarray
Reference: untreated
cell line | test | setting | log2 fold change
A549 | refers to: ISG20L1 | 50 µM | 1.14
SK-OV-3 | refers to: CCL8 | 10 µM | 5.77
A549 | refers to: CCL11 | 10 µM | 0
SK-OV-3 | refers to: GADD45A | 50 µM | 2.65
SK-OV-3 | refers to: ACTA2 | 10 µM | 0.0606
PANC-1 | refers to: GADD45A | 50 µM | 2.78
PANC-1 | refers to: UBB | 10 µM | -0.973
SK-OV-3 | refers to: CCL11 | 10 µM | 0

Block 8
SMILES: CCC1(c2cccc(-c3cn(C)nc3C)c2)C2=C(Nc3n[nH]cc31)C(F)C(C)(C)CC2=O (single isomer, unassigned)
Concentration: 1 µM
target | test | how to read | remaining binding [%]
Mitotic checkpoint serine/threonine-protein kinase BUB1 (BUB1, Homo sapiens, UniProt O43683) | binding, competition with immobilised ligand | – | 100
Tyrosine-protein kinase ABL1, phosphorylated (ABL1, Homo sapiens, UniProt P00519, H396P) | kinase binding, KINOMEscan | reference: DMSO control | 80
Serine/threonine-protein kinase MARK2 (MARK2, Homo sapiens, UniProt Q7KZI7) | kinase binding, KINOMEscan | reference: DMSO control | 98
Ribosomal protein S6 kinase alpha-4, C-terminal kinase domain (RPS6KA4, Homo sapiens, UniProt O75676) | kinase binding, KINOMEscan | reference: DMSO control | 100
Mitogen-activated protein kinase kinase kinase kinase 3 (MAP4K3, Homo sapiens, UniProt Q8IVH8) | binding, competition with immobilised ligand | – | 100
Calcium/calmodulin-dependent protein kinase type 1D (CAMK1D, Homo sapiens, UniProt Q8IU85) | kinase binding, KINOMEscan | reference: DMSO control | 100
Discoidin domain-containing receptor 2 (DDR2, Homo sapiens, UniProt Q16832) | binding, competition with immobilised ligand | – | 95
Tyrosine-protein kinase JAK1, JH2 (JAK1, Homo sapiens, UniProt P23458) | binding, competition with immobilised ligand | – | 95
Non-receptor tyrosine-protein kinase TYK2, JH2 (TYK2, Homo sapiens, UniProt P29597) | binding, competition with immobilised ligand | – | 47
Activin receptor type-1B (ACVR1B, Homo sapiens, UniProt P36896) | kinase binding, KINOMEscan | reference: DMSO control | 100
Ribosomal protein S6 kinase alpha-1, N-terminal kinase domain (RPS6KA1, Homo sapiens, UniProt Q15418) | binding, competition with immobilised ligand | – | 99

Other studies, line by line
MPO: Myeloperoxidase (MPO, Homo sapiens, UniProt P05164)
UniProt P05164, sequence (whole entry, looked up): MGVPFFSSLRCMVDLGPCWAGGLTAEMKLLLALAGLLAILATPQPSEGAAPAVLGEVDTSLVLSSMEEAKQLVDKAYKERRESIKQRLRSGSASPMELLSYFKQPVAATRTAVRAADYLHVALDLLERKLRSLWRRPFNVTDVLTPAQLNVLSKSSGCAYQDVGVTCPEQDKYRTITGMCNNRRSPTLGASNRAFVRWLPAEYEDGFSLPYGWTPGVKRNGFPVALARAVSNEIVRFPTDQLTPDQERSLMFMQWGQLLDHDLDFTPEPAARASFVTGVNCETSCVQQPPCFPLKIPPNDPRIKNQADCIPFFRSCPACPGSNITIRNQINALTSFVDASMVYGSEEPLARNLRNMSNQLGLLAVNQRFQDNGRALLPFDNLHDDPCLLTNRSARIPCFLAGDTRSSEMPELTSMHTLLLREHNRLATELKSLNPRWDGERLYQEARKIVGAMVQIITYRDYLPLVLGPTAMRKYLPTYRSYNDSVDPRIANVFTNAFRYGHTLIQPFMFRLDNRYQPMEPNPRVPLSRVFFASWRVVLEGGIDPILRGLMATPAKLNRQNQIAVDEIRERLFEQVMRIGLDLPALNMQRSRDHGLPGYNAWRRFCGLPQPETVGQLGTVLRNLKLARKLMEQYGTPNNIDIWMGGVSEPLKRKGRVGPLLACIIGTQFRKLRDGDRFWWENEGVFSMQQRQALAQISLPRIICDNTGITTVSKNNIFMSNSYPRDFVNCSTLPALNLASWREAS
Structure (SMILES) | target or system | test | system | setting | how to read | endpoint | value
CCn1cnc2c(NCc3nc4cc(F)c(F)cc4[nH]3)nc(N3CCn4ncnc4C3)nc21 | MDA-MB-468 | cell growth or viability | – | 5 days | – | EC50 | 92.2 nM
CC(C)(C)NC(=O)c1ccc(OC/C(=C/F)CN)cc1 | MPO | enzyme activity, inhibitor, fluorescence | – | 0.1235 µM | – | inhibition | -14.3% and -8.21% and -10.9%
Cn1cc(-n2cnc3c(NCc4nc5cc(Cl)c(Cl)cc5[nH]4)nc(N4CCNCC4)nc32)cn1 | MDA-MB-231 | cell viability, CellCounting-Lite | – | 24.69 nM, 37 °C | higher = more viable cells | luminescence signal | 323000 a.u. and 412000 a.u. and 451000 a.u.
COc1ccc(Cl)cc1-c1cc(=O)[nH]c(=S)n1CC(N)=O | MPO | enzyme activity, inhibitor | – | 10 µM | – | remaining activity | 3.23%
Cc1nc(C)c(C=[N+]([O-])C(C)(C)C)nc1C | – | Western blot | MPTP mouse model | 30 mg/kg | – | pSer473-Akt/total Akt | 173 and 139 and 140 and 159
O=c1[nH]c(=S)n(C[C@H]2CCCO2)c2nc[nH]c12 | Amine oxidase [copper-containing] 3 (AOC3, Homo sapiens, UniProt Q16853) | enzyme activity, inhibitor, fluorescence | – | 3 µM | – | inhibition | -69%
CCn1cnc2c(NCc3nc4cc(Cl)c(Cl)cc4[nH]3)nc(N3CCN(C(=O)c4cccnc4)CC3)nc21 | Cyclin-dependent kinase 12, with cyclin K (CDK12, Homo sapiens, UniProt Q9NYV4) | kinase activity, inhibitor, ADP-Glo | – | 0.0082 µM | – | inhibition | -10.5%
NC/C(=C\F)COc1cccc(Cn2c(=S)[nH]c(=O)c3[nH]cnc32)c1 | – | – | human whole blood | 1 h | – | blood to plasma ratio | 0.99
CCn1cnc2c(NCc3nc4cc(Cl)c(Cl)cc4[nH]3)nc(N3CCN(C(C)=O)CC3)nc21 | MDA-MB-231 | cell viability, CellCounting-Lite | – | 0.3048 nM, 37 °C | higher = more viable cells | luminescence signal | 436000 a.u. and 445000 a.u.

For quick reference, copied from above (block 7):
cell line | test | setting | log2 fold change
SK-OV-3 | refers to: GADD45A | 50 µM | 2.65
SK-OV-3 | refers to: ACTA2 | 10 µM | 0.0606
PANC-1 | refers to: GADD45A | 50 µM | 2.78
PANC-1 | refers to: UBB | 10 µM | -0.973
